Measured values gathered from unrelated publications.
Each line is one published result; not all experiments were run side by side. “And” joins repeats or separate records; there may be more than shown. ± marks the error that the study gave.
PLEKHA4 PH domain: Pleckstrin homology domain-containing family A member 4, PH domain (PLEKHA4, Homo sapiens, UniProt Q9H4M7)
Sequence of UniProt Q9H4M7 (whole entry, looked up): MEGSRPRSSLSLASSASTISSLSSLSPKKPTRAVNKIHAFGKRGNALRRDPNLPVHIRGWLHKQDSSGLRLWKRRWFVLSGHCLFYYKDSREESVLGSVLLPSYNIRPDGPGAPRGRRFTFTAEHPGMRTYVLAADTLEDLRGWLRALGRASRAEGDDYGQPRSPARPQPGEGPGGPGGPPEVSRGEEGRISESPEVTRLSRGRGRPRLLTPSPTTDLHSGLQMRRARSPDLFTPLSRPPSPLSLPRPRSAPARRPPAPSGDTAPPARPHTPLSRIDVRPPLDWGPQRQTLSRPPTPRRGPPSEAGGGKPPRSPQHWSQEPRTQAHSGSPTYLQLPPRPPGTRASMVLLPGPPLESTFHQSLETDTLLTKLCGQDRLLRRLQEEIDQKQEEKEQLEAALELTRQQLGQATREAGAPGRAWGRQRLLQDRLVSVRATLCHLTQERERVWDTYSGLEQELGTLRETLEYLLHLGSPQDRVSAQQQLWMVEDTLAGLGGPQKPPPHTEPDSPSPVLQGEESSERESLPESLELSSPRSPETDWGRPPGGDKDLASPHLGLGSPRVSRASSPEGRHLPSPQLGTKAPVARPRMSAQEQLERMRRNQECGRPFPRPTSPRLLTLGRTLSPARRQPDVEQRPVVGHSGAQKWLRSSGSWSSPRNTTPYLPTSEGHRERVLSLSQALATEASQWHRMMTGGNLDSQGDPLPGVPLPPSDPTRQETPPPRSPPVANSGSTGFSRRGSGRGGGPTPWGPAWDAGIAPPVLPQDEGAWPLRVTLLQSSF
Sequence of UniProt P28566 (whole entry, looked up): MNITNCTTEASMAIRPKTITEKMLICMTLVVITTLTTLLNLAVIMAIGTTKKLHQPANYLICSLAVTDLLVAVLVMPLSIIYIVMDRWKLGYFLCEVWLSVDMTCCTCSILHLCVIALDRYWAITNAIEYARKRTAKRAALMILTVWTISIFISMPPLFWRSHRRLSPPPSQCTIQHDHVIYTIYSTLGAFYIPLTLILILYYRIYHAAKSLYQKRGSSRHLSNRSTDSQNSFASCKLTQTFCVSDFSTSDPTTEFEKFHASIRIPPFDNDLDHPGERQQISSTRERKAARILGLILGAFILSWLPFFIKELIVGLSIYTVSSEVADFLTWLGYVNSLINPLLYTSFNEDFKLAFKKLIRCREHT
Sequence of UniProt Q9HCR9 (whole entry, looked up): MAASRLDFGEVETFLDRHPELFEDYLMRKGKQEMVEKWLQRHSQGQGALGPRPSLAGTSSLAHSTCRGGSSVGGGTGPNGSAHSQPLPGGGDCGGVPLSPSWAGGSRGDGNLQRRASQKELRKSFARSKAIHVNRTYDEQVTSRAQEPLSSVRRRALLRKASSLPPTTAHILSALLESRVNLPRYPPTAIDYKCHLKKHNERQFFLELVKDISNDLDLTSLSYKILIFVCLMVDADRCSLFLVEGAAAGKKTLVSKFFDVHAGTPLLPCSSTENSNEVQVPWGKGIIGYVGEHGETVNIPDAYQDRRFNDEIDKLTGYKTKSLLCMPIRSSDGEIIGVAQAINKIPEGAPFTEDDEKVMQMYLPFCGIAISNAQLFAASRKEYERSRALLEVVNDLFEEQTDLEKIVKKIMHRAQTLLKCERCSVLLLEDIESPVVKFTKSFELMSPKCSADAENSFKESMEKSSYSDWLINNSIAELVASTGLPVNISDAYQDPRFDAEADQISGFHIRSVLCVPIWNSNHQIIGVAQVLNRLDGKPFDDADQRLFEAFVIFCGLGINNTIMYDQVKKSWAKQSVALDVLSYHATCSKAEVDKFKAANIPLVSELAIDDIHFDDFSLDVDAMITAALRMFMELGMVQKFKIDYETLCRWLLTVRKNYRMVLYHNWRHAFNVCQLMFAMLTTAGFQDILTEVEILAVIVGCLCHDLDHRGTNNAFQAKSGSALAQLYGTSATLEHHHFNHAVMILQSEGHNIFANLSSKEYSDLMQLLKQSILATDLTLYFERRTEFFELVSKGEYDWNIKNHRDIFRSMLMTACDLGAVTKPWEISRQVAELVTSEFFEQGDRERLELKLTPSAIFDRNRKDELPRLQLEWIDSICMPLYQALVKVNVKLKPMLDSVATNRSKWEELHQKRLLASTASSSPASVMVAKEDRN
Sequence of UniProt Q6IQ20 (whole entry, looked up): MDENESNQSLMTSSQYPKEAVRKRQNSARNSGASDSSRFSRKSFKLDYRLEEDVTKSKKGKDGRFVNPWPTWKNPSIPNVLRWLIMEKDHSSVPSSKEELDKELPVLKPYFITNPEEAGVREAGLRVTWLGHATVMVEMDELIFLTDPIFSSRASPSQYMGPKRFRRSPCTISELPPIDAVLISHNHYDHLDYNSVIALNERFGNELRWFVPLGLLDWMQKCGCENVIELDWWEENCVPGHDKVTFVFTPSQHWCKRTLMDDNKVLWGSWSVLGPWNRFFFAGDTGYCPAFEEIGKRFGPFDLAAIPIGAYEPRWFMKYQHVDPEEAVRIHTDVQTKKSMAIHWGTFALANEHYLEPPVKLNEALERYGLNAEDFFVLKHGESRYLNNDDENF
Sequence of UniProt P07339 (whole entry, looked up): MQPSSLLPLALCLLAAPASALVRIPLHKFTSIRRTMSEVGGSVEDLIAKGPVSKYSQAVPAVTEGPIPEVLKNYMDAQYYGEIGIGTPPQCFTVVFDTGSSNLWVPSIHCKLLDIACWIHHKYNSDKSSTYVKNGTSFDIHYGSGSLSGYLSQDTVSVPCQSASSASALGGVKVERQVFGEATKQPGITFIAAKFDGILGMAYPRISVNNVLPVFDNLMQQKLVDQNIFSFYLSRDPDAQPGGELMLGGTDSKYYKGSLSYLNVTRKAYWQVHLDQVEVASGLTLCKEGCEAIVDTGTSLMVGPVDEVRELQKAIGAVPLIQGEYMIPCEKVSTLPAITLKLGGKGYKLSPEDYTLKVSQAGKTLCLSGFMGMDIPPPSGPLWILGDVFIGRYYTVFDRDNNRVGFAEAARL
Sequence of UniProt Q15391 (whole entry, unmodified, looked up): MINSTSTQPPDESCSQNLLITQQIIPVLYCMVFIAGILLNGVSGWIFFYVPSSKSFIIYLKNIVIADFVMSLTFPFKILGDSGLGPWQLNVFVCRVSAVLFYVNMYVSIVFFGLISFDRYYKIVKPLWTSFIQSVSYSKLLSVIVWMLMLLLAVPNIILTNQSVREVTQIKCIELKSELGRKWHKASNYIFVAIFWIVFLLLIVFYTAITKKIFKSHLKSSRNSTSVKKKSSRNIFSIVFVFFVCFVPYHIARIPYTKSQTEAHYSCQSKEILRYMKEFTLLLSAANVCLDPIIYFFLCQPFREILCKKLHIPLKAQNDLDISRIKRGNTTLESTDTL
Sequence of UniProt P07363 (whole entry, looked up): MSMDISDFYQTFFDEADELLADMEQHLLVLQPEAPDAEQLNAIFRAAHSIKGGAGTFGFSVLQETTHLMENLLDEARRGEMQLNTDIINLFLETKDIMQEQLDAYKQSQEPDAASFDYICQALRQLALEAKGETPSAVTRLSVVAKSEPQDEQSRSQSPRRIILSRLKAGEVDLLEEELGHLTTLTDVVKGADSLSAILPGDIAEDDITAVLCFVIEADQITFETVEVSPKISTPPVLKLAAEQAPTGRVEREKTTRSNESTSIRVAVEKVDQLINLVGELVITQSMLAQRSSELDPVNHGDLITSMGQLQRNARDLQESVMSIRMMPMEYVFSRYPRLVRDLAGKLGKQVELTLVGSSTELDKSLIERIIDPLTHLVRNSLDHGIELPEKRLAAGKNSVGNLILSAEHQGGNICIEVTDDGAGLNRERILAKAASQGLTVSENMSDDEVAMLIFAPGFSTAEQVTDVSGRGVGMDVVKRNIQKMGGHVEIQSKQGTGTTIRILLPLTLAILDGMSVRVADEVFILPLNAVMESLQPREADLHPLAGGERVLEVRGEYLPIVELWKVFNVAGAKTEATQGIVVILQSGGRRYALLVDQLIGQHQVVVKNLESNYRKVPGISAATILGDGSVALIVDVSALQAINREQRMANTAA

Under “treatment-emergent adverse events”, O=C(Nc1nc2cccc(-c3ccc(CN4CCS(=O)(=O)CC4)cc3)n2n1)C1CC1 is recorded as 0% (measured: epigastric discomfort; human rheumatoid arthritis patients; oral, 150 mg once daily, 4 weeks, regardless of relatedness).
The Ki of COc1cc2c(c(OC)c1OC)-c1c(cc(OC)c(OC)c1OC)C[C@H](C)[C@H](C)C2 is reported as 37 µM (CYP3A, rat; poziotinib metabolism to M2, inhibitor; rat liver microsomes; with: poziotinib).
The viability of COc1c(O)c(C)cc2c1C(=O)c1c(O)cccc1C2=O is reported as 73.6 ± 6.94% (HK-2 co-cultured with HepaRG; MTT; 66.67 µM, 48 h; baseline: untreated control).
The Ki of Oc1c(Cl)cc(Cl)c(Cl)c1Cc1c(O)c(Cl)cc(Cl)c1Cl is reported as 4.27 µM (N-acyl-phosphatidylethanolamine-hydrolyzing phospholipase D (Homo sapiens, UniProt Q6IQ20)).
The Ki of Nc1ncnc2c1ncn2[C@@H]1O[C@H](COP(=O)(O)OP(=O)(O)CP(=O)(O)O)[C@@H](O)[C@H]1O is reported as 877 µM (Chemotaxis protein CheA (Escherichia coli, UniProt P07363); kinase activity, inhibitor; CheA-CheW vesicle-assembled complexes, estimated).
For CCOc1ccc(C(=O)CC(SCc2cccc(Br)c2)C(=O)O)cc1 (stereo not shown), the Ki was 33 ± 5.3 µM (PLEKHA4 PH domain; PLEKHA4 PI(4,5)P2 binding, fluorescence polarization; with: BODIPY-PI(4,5)P2 tracer).
For Cc1ccc([C@H]2C[C@@H]2COc2cc(NCc3nnc(C)s3)nc(C)n2)nc1, the Ki was greater than 95.2 µM (PDE11A (Homo sapiens, UniProt Q9HCR9); enzyme activity, inhibitor, IMAP fluorescence polarization; isoform PDE11A4, with: cAMP substrate).
CCOc1cccc(C(=O)CC(SCc2cccc(Br)c2)C(=O)O)c1 (stereo not shown) has a Ki of 32.3 ± 2.5 µM (PLEKHA4 PH domain; PLEKHA4 PI(4,5)P2 binding, fluorescence polarization; with: BODIPY-PI(4,5)P2 tracer).
With COc1cc2c(c(OC)c1OC)-c1c(cc3c(c1OC)OCO3)CC(C)C(C)C2 (stereo not shown) the Ki was 6.91 µM (CYP3A, rat; poziotinib metabolism to M2, inhibitor; rat liver microsomes; with: poziotinib).
For CCOc1ccc(-c2cc(C(=O)O)c(-c3ccc(Cl)cc3)o2)cc1, the Ki was 7.85 ± 0.59 µM (PLEKHA4 PH domain; PLEKHA4 PI(4,5)P2 binding, fluorescence polarization; with: BODIPY-PI(4,5)P2 tracer).
O=c1ccn([C@@H]2O[C@H](COP(=O)(O)OP(=O)(O)O[C@H]3O[C@H](CO)[C@@H](O)[C@H](O)[C@H]3O)[C@@H](O)[C@H]2O)c(=S)[nH]1 has a Ki of greater than 3 µM (P2Y purinoceptor 14 (P2RY14, Homo sapiens, UniProt Q15391, H184A)).
With CC#Cc1cncc(-c2ccc3c(c2)[C@@]2(N=C(C)C(N)=N2)[C@]2(CC[C@H](OC)CC2)C3)c1 the Ki was 3.8 µM (Cathepsin D (CTSD, Homo sapiens, UniProt P07339); inhibitor).
COc1c(O[C@@H]2O[C@H](CO)[C@@H](O)[C@H](O)[C@H]2O)c(C)cc2c1C(=O)c1c(O)cccc1C2=O has a cell viability of 92.7 ± 1.47% (HK-2 co-cultured with HepaRG; MTT; 33.33 µM, 48 h; baseline: untreated control).
CCOc1ccc(C(=O)CC(SCc2ccc(Br)cc2)C(=O)O)cc1 (stereo not shown) has a Ki of 142 ± 23 µM (PLEKHA4 PH domain; PLEKHA4 PI(4,5)P2 binding, fluorescence polarization; with: BODIPY-PI(4,5)P2 tracer).
CC(=O)N[C@H]1[C@H](O[C@H]2[C@H](O)[C@@H](NC(C)=O)C(O)O[C@@H]2CO)O[C@H](CO)[C@@H](O[C@@H]2O[C@H](CO)[C@@H](O[C@@H]3O[C@H](CO)[C@@H](O)[C@H](O)[C@H]3NC(C)=O)[C@H](O)[C@H]2NC(C)=O)[C@@H]1O (stereo partly shown) gave a Ki of 0.0292 µM and 0.054 µM (LysM receptor-like kinase (Brachypodium distachyon, UniProt A0A0Q3FRN3); LCO binding, radioligand competition binding; membrane fractions).
CN1CCN2c3ncccc3Cc3ccccc3C2C1 (stereo not shown) gave a Ki of 0.269 µM (HTR1E (Homo sapiens, UniProt P28566); binding).
